Assay results from different studies.
Each line is one published result; not all experiments were run side by side. ± gives the spread as reported.

Structure (SMILES) | target or system | assay | test system | setting | how to read | quantity | result
C=CC(=O)N1[C@@H](c2ccc3c(c2)OCO3)c2[nH]c3ccccc3c2C[C@H]1C(=O)N1CCN(C)CC1 | human cyclin E1 N112C-3xFLAG:CDK2 | co-IP with TMT proteomics, item: HSPA5 | – | concentration not given, P11021 | reference: wild type DMSO | relative co-enrichment | 110%
COc1cc(O)ccc1CCC(c1ccc(O)cc1)c1cc2c(c(C)c1O)OC(c1ccc(O)cc1)CC2 (mixture of isomers) | – | item: RvE3 | human whole blood | 30 µM, together with: Escherichia coli | – | amount | 44 ± 31 pg/mL blood
COC1CN([C@H]2CC[C@H]([C@@]3(C)Oc4c(Cl)cc(C(=O)NCc5c(SC)cc(C)[nH]c5=O)c(C)c4O3)CC2)C1 | – | RNA-seq, item: STARD10 | human, whole blood | dose not given, 24 h | reference: pretreatment baseline | log2 fold change | 1.34
C=C(NC(=O)c1csc(-c2nc3c(cc2O)-c2nc(cs2)C(=O)NC(C(C)O)C(=O)NC(=C(C)OC)c2nc(cs2)C(=O)NC2c4nc(cs4)C(=O)NC(COC(=O)c4c5c6c(cccc6n4O)COC(=O)C(OC4CC(C)(O)C(N(C)C)C(C)O4)C2OC5)c2nc-3cs2)n1)C(N)=O (stereo not drawn) | Streptococcus pneumoniae | – | -4, immunocompromised mice, lung infection, lung | 8 mg/kg/day once daily, 24 h post-dose | – | bacterial load | 4.74 log CFU/g
Cc1ncsc1-c1ccc(C(C)NC(=O)C2CC(O)CN2C(=O)C(NC(=O)CCCCCCCCCCN2CCCC(Nc3ncc(Cl)c(Nc4ccccc4S(=O)(=O)C(C)C)n3)C2)C(C)(C)C)cc1 (stereo not drawn) | 22Rv1 | RNA-seq, item: ZFP36L2 mRNA | – | concentration not given | reference: DMSO | log2 fold change | -1.34
C[n+]1cccc2cc(/C=N/NC(=O)C(=O)N/N=C/c3ccc4c(ccc[n+]4C)c3)ccc21 | myc22 MYC G4-DNA parallel | FRET melting | – | 1 µM, K1 buffer, DNA 0.2 µM, together with: ds26 10 µM | – | ΔTm | 4.2 ± 1.1 °C
C=CC(=O)Nc1cccc(Cn2ncc3cnc(Nc4cnn(CCOC)c4)nc32)c1 | MAPKAPK5 human | binding, KINOMEscan | – | 100 nM | lower = stronger binding | percent of control | 96%
CC[n+]1cccc2cc(/C=N/NC(=O)c3cncc(C(=O)N/N=C/c4ccc5c(ccc[n+]5CC)c4)n3)ccc21 | myc22 MYC G4-DNA parallel | FRET melting | – | 1 µM, K1 buffer, DNA 0.2 µM | – | ΔTm | 19.6 ± 0.4 °C
CNS(=O)(=O)Nc1nccc(Cc2c(C)c3ccc(Oc4ncccc4F)cc3oc2=O)c1F | CAL-51 | cell viability | – | 7 days | – | IC50 | > 1 µM
Nc1ncc(-c2cc(-c3cnn(CC(F)(F)F)c3)ncc2F)nc1C(=O)NC1CNCC(F)C1 (stereo not drawn) | AAK1 | KINOMEscan | – | 1 µM | reference: control | remaining binding | 100%
O=C(N/N=C/c1ccc(C[n+]2ccccc2)cc1)C(=O)N/N=C/c1ccc(C[n+]2ccccc2)cc1 | myc22 MYC G4-DNA parallel | FRET melting | – | 1 µM, K1 buffer, DNA 0.2 µM, together with: ds26 10 µM | – | ΔTm | 3.4 ± 0.4 °C
CN1CCC[C@]1(C)/C=C/S(=O)(=O)NC(=O)Nc1c2c(cc3c1CCC3)CCC2 | – | – | human, whole blood ex vivo | 50 mg twice daily, day 1, 3 h, multiple ascending dose, together with: LPS and ATP | – | IL-1β inhibition | 99.5%
O=C(N/N=C/c1ccc(C[n+]2ccccc2)cc1)c1cc(C(=O)N/N=C/c2ccc(C[n+]3ccccc3)cc2)ncn1 | myc22 MYC G4-DNA parallel | FRET melting | – | 1 µM, K1 buffer, DNA 0.2 µM | – | ΔTm | 2.3 ± 2.2 °C
CN1CCCNC(=O)c2cccc(c2)C(=O)NCCCN(C)CCCNc2cccc3c2C(=O)c2cccc(c2C3=O)NCCC1 | SAS | RNA-Seq, item: TIMM10B mRNA | – | 1 µM, 6 h | reference: untreated cells | log2 fold change | -2.6
CC(=O)[O-].O.O.O.O.[Co+2].[O-]c1ccc(Br)cc1C=NCCN1CCOCC1 | – | superoxide scavenging | – | 200 µM | – | inhibition | 58.3%
O=C(N/N=C/c1ccc(C[n+]2ccccc2)cc1)c1cccc(C(=O)N/N=C/c2ccc(C[n+]3ccccc3)cc2)c1 | myc22 MYC G4-DNA parallel | FRET melting | – | 1 µM, K1 buffer, DNA 0.2 µM | – | ΔTm | 2.4 ± 1.2 °C
CC(C)c1ccc(N(C)c2ccc3c(c2)OCC[C@H]3CNc2cnccc2C(=O)O)cc1 | SK-MEL-24 | cell growth or viability, ATP luminescence | – | 7 days | – | IC50 | ≥ 10 µM
C[n+]1ccc(/C=N/NC(=O)c2ccc3ccc4ccc(C(=O)N/N=C/c5cc[n+](C)cc5)nc4c3n2)cc1 | myc22 MYC G4-DNA parallel | FRET melting | – | 1 µM, K1 buffer, DNA 0.2 µM, together with: ds26 10 µM | – | ΔTm | 12.6 ± 0.8 °C
COc1ccc(C(=O)CCc2cc(C(CCc3ccc(O)cc3OC)c3ccc(O)cc3)c(O)cc2OC)cc1 (racemic) | – | – | human blood | 0.3 µM, together with: A23187 | – | 20-OH-LTB4 level | 488 ± 175 pg/mL
O=C(N/N=C/c1cc[n+](CC2CC2)c2ccccc12)c1ccc2ccc3ccc(C(=O)N/N=C/c4cc[n+](CC5CC5)c5ccccc45)nc3c2n1 | myc22 MYC G4-DNA parallel | FRET melting | – | 1 µM, K1 buffer, DNA 0.2 µM, together with: ds26 10 µM | – | ΔTm | 24.1 ± 1.2 °C
C[N+](C)(C)CCO.O=C([O-])C(Cl)Cl | Amaranthus retroflexus | herbicidal activity | – | 15 mg/mL, 21 days, pre-emergence greenhouse | – | inhibition | 0%
